Measured values pooled from the literature.
“And” joins repeats or separate records; there may be more than shown. pEC50: −log10 of the molar value. ≈ marks a conversion by molar mass, not a printed value.

For CC(C)(C#N)c1cc(Cn2cncn2)cc(C(C)(C)C#N)c1, the maximum inhibition was 9.83% (human coronavirus OC43; virus-induced cell killing; MRC-5; screen).
For O=C1Nc2ccc(I)cc2/C1=C/c1cc(Br)c(O)c(Br)c1, the inhibition was 35% (mouse hepatitis virus; viral replication; nanoluciferase reporter; 1 µM).
Cc1c([N+](=O)[O-])oc2ccc3ccccc3c12 has an MIC90 of less than 0.25 mg/L (Salmonella enterica; REMA).
With CCOc1cn(-c2ccc(F)cc2C)nc1C(=O)Nc1ccc(Oc2ccnc3cc(OC)c(OC)cc23)c(F)c1 the inhibition was 19% (mouse hepatitis virus; viral replication; nanoluciferase reporter; 1 µM).
COc1ccc2c(ccc3oc([N+](=O)[O-])c(C)c32)c1 has an MIC90 of greater than 32 mg/L (Salmonella enterica; REMA).
C[C@H]1CCC/C=C/[C@@H]2C[C@H](O)C[C@H]2[C@H](O)/C=C/C(=O)O1 has a pEC50 of 7.19 (Toxoplasma gondii; parasite growth, luciferase reporter; HFF, tachyzoite; 72 h).
With OC[C@H]1O[C@@H](n2ccc3c(SCc4ccc(F)cc4F)ncnc32)[C@H](O)[C@@H]1O the survival was 0% (Toxoplasma gondii; [3H]uracil incorporation; human fibroblasts, RH wild type; 25 µM).
COc1ccc([C@@]23Oc4cc(OC)cc(OC)c4[C@@]24N=C(C)N[C@@]4(O)[C@H](C(=O)N(C)OC)[C@H]3c2ccccc2)cc1 gave a pEC50 of 8.83 (Hepatitis E virus; viral replication; HepG2 HEV-3 replicon, genotype 3 wild boar isolate; 24 h).
With CSc1cccc(Nc2ncc3cc(-c4c(Cl)cccc4Cl)c(=O)n(C)c3n2)c1 the maximum inhibition was 47% (human coronavirus OC43; virus-induced cell killing; MRC-5; screen).
With CC(=O)NC[C@H]1CN(c2ccc(N3CCOCC3)c(F)c2)C(=O)O1 the MIC90 was 1 mg/L (≈ 2.96 µM) (Staphylococcus, coagulase-negative).
N#Cc1ccc2c(ccc3oc([N+](=O)[O-])cc32)c1 has an MIC90 of less than 0.25 mg/L (Salmonella enterica; REMA).
COc1cnc(OC)n2nc(NS(=O)(=O)c3c(OCC(F)F)cccc3C(F)(F)F)nc12 gave an inhibition of 97.9% and 91.8% and 97.8% (Amaranthus retroflexus; fresh weight; 150 g ai/ha, post-emergence treatment).
For CNC[C@H](O)[C@@H](O)[C@H](O)[C@H](O)CO.[O]=[Sb](=[O])[OH], “lesion size difference” read 4.99 (Leishmania major; BALB/c mouse; topical, dose not given, 7 days, unit not given; reference: PBS).
With O=S(=O)([O-])CCSSCCS(=O)(=O)[O-].[Na+].[Na+] the maximum inhibition was 0% (human coronavirus OC43; virus-induced cell killing; MRC-5; maximum over 10 doses).
For CO/N=C(\C(=O)N[C@@H]1C(=O)N2C(C(=O)O)=C(CSC(=O)c3ccco3)CS[C@H]12)c1csc(N)n1, the MBC was 64 mg/L (Staphylococcus aureus; CAAS-2019-CAAS-2019-14 clinical blaZ-resistant isolate, 25% plasma).
With CCCCc1c([N+](=O)[O-])oc2ccc3ccccc3c12 the MIC90 was 32 mg/L (≈ 119 µM) (Mycobacteroides abscessus; REMA; ATCC 19977).
The EC90 of Fc1ccc(C(OCCN2CCN(CCCc3ccccc3)CC2)c2ccc(F)cc2)cc1 is reported as 11 µM (Toxoplasma gondii; parasite growth; HFF, bradyzoite, glutamine-induced).
With CC(=O)N1CCN(c2ccc(OCC3COC(Cn4ccnc4)(c4ccc(Cl)cc4Cl)O3)cc2)CC1 (stereo not shown) the MIC was 64 µM (≈ 34 µg/mL) (Candida albicans; broth microdilution; 56452, RPMI 1640-MOPS; 48 h, 30 °C).
Cn1c(=O)ccc2ccc(F)c(CCNC[C@H]3CN(c4cnc5c(n4)NC(=O)CO5)C(=O)O3)c21 has an MIC50 of less than 0.015 mg/L (coagulase-negative Staphylococcus).
With Cc1ccc(CSc2ncnc3c2ccn3[C@@H]2O[C@H](CO)[C@@H](O)[C@H]2O)cc1 the survival was 80.1% (Toxoplasma gondii; [3H]uracil incorporation; human fibroblasts, RH wild type; 5 µM).
With COc1cc2c(cc1O)CC[C@@H]1[C@@H]2CC[C@]2(C)[C@@H](O)CC[C@@H]12 the maximum inhibition was 0% (human coronavirus OC43; virus-induced cell killing; MRC-5; maximum over 10 doses).
CS(=O)(=O)CCCn1c(Cn2c(=O)n(CC(F)(F)F)c3ccncc32)cc2cc(Cl)ccc21 — result for “LS mean viral load change”: -4.14 log10 copies/mL (respiratory syncytial virus; RT-qPCR; hospitalized infants 1-24 months, nasal swab; oral, 6, 4.5 or 3 mg/kg daily, day 7, mid dose by age cohort; reference: baseline).
The maximum inhibition of C[C@]12CC[C@@H]3c4ccc(O)cc4CC[C@H]3[C@@H]1CC[C@@H]2O is reported as 5.66% (human coronavirus OC43; virus-induced cell killing; MRC-5; screen).
For COC(=O)N[C@H](C(=O)N1CCC[C@H]1c1ncc(-c2ccc(-c3ccc(-c4cnc([C@@H]5CCCN5C(=O)[C@@H](NC(=O)OC)C(C)C)[nH]4)cc3)cc2)[nH]1)C(C)C, the combination index was 0.72 and 0.73 (hepatitis C virus; HCV replicon; 50% effect level, with: IFN-α, ratio 1:1).
With CN(N=O)C(=O)N[C@H]1C(O)O[C@H](CO)[C@@H](O)[C@@H]1O (mixture of isomers) the maximum inhibition was 0% (human coronavirus OC43; virus-induced cell killing; MRC-5; maximum over 10 doses).
CC[C@H](C)[C@H](NC(=O)[C@H](C)NC(=O)[C@H](CCCCN)NC(=O)[C@H](CC(C)C)NC(=O)[C@H](C)NC(=O)[C@@H](NC(=O)[C@H](Cc1c[nH]cn1)NC(=O)[C@H](CC(C)C)NC(=O)[C@@H](NC(=O)[C@@H](NC(=O)[C@H](CCCCN)NC(=O)[C@H](C)NC(=O)[C@H](C)NC(=O)[C@H](CO)NC(=O)[C@H](CCCCN)NC(=O)[C@H](Cc1ccccc1)NC(=O)[C@@H](NC(=O)[C@H](CCCCN)NC(=O)[C@H](CC(C)C)NC(=O)[C@H](Cc1ccccc1)NC(=O)[C@H](CO)NC(=O)[C@H](CCCCN)NC(=O)[C@H](Cc1c[nH]c2ccccc12)NC(=O)[C@H](CCCCN)NC(C)=O)[C@@H](C)O)[C@@H](C)O)C(C)C)[C@@H](C)O)C(=O)N[C@@H](CO)C(=O)N[C@@H](CO)C(N)=O has an MBC50 of 16 mg/L (≈ 5.45 µM) (Streptococcus pyogenes; ATCC 13813; 1 strain).
The fold enrichment of Nc1ncnc2c1ncn2[C@@H]1O[C@@H]2COP(=O)(O)O[C@H]3[C@@H](O)[C@H](n4cnc5c(=O)[nH]cnc54)O[C@@H]3COP(=O)(O)O[C@H]2[C@H]1O is reported as 4.5 (West Nile virus; RNA sequencing Reactome analysis, refers to: Mitotic Spindle Checkpoint (R-HSA-69618); HFF-1; concentration not given, upregulated pathways, with: West Nile virus infection; reference: WNV-infected without compound).
OC[C@H]1O[C@@H](n2ccc3c(O)ncnc32)[C@H](O)[C@@H]1O has a parasite survival of 100% (Toxoplasma gondii; [3H]uracil incorporation; human fibroblasts, adenosine kinase-deficient; 5 µM).
For COC(=O)[C@@H]1[C@@H](c2ccccc2)[C@]2(c3ccc(OC)cc3)Oc3cc(OC)cc(OC)c3[C@@]23N=C(C)N[C@@]13O, the pEC50 was 8.60 (Hepatitis E virus; viral replication; HepG2 HEV-3 replicon, genotype 3 wild boar isolate; 48 h).
CO[C@H]1C[C@@H]2CC[C@@H](C)[C@@](O)(O2)C(=O)C(=O)N2CCCC[C@H]2C(=O)O[C@H]([C@H](C)C[C@@H]2CC[C@@H](O)[C@H](OC)C2)CC(=O)[C@H](C)/C=C(\C)[C@@H](O)[C@@H](OC)C(=O)[C@H](C)C[C@H](C)/C=C/C=C/C=C/1C gave a maximum inhibition of 0% (human coronavirus OC43; virus-induced cell killing; MRC-5; maximum over 10 doses).
N=C(N)c1ccc(OCc2cc(Br)cc(COc3ccc(C(=N)N)cc3)c2)cc1 gave an FICI of no more than 0.078 (Escherichia coli; checkerboard; BW25113 mcr-1 plasmid; unit not given, with: rifampicin; lower = stronger synergy).
The MIC90 of COc1c([N+](=O)[O-])oc2ccc3ccccc3c12 is reported as greater than 32 mg/L (Mycobacteroides abscessus; REMA; ATCC 19977).
The MIC of N=C(N)NCCC[C@H](NC(=O)CN)C(=O)N[C@@H](Cc1c[nH]c2ccccc12)C(=O)N[C@@H](CCCNC(=N)N)C(=O)N[C@@H](Cc1c[nH]c2ccccc12)C(=O)N[C@@H](Cc1c[nH]c2ccccc12)C(=O)N[C@@H](Cc1c[nH]c2ccccc12)C(=O)N[C@@H](CCCNC(=N)N)C(=O)N[C@@H](Cc1c[nH]c2ccccc12)C(=O)N[C@@H](CCCNC(=N)N)C(=O)N[C@@H](Cc1ccccc1)C(N)=O is reported as 8 µM (≈ 14.2 µg/mL) (Candida albicans; broth microdilution; SP3903, RPMI 1640-MOPS; 48 h, 30 °C).
With c1ccc2c(c1)[I+]c1ccccc1-2 the EC90 was 0.112 µM (Toxoplasma gondii; glutamine-induced bradyzoites).
Cc1c2c(nn1C)CSCc1cc(n(C)n1)CSc1cc(c3ccccc3c1)OCCCc1c(C(=O)O)n(C)c3c-2c(Cl)ccc13 gave a fold change of 16.9 (Staphylococcus aureus; label-free quantitative proteomics, refers to: SAOUHSC_02629 protein; SA113; concentration not given; reference: untreated control).
The survival of OC[C@H]1O[C@@H](n2ccc3c(SCc4ccc(Cl)c(Cl)c4)ncnc32)[C@H](O)[C@@H]1O is reported as 83.6% (Toxoplasma gondii; [3H]uracil incorporation; human fibroblasts, RH wild type; 5 µM).
The inhibition of CC(C)NC(=O)N1CC[C@@H](NC2=Nc3cc(F)ccc3N(CC(F)F)c3ccc(Cl)cc32)C1 is reported as -32% (mouse hepatitis virus; viral replication; nanoluciferase reporter; 1 µM).
